Measurements collected from several papers.
Numbered parts are unrelated; each lists some results of a single study.

Block 1
Target: Histone acetyltransferase KAT6A, winged helix 1, GST fusion (KAT6A, Homo sapiens, UniProt Q92794, residues 1-85)
Method: protein binding microarray
Molecule type: double-stranded DNA, one strand shown
Medium: in vitro
Tested at: not given
Notes: 8-mer, flanks averaged, mean of 2 arrays, mostly near background
Reference: not given
Reading: higher = stronger binding
Target sequence (chain): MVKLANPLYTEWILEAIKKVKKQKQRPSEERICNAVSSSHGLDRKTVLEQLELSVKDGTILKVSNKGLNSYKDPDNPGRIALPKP
The E-score of `GTCTGAAC` is reported as -0.0708.
`CGGATCGA` gave an E-score of 0.0731.
`GAATGCCA` gave an E-score of -0.00607.
`TGATGCCA` gave an E-score of -0.121.
`GGGAGGAC` gave an E-score of 0.0635.
`ATCTGACG` has an E-score of 0.00522.
The E-score of `TCAGAGCA` is reported as -0.212.
With `ACTCCTAT` the E-score was -0.191.
The E-score of `AGATCACT` is reported as -0.178.
For `ATCGGGCC`, the E-score was 0.124.
The E-score of `GGGTTGGA` is reported as -0.0569.
For `CAGCGGAG`, the E-score was 0.0995.
The E-score of `AGGACTAT` is reported as -0.149.
The E-score of `GCTCTGGA` is reported as -0.0888.
`AATGATCA` has an E-score of -0.0552.
With `CATCGCCC` the E-score was 0.132.
With `AAGTACGA` the E-score was -0.0283.

Block 2
Target: Hepatocyte nuclear factor 3-alpha (Foxa1, Mus musculus, UniProt P35582, residues 1-468, full length assumed)
Method: EMSA with sequencing
Molecule type: double-stranded DNA, one strand shown
Medium: in vitro
Tested at: 10 and 20 nM
Notes: whole designed probe, mean of two concentrations, ends assumed
Reference: negative control set to 0
Reading: higher = stronger binding
Target sequence (chain): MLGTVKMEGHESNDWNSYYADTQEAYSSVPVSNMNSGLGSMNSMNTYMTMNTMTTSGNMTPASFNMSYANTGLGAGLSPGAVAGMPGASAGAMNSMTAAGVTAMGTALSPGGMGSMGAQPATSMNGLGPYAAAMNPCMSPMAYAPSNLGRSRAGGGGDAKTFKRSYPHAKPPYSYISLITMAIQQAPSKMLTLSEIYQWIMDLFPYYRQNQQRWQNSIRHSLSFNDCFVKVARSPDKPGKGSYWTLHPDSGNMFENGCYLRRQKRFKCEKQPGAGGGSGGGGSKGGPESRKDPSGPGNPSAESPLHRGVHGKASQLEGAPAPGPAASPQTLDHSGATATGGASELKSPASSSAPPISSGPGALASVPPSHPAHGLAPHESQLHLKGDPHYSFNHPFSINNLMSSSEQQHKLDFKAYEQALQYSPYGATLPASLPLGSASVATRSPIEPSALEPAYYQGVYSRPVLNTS
`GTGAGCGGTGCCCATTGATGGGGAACGGACACAGCCAGAGGCCATGAGTGCTCAGGAGTGCCATAAACTGTGATTTTGAGACTGATAAGGCCAGGCTAAATAGCTTGCTGGGTGTGTCTAGATTGCCTTTTTATATTTGAGGCCTATAAAAAAATAGTGAGAAAATAGCAAGATGCCCAGGAGACAGGTGATCTGATTCAGCCAGGGGGTGGGAGGTGGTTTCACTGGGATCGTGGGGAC` — result for “normalised bound fraction”: -0.0763 ratio.
`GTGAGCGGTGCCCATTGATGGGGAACCACCGCGCTCGCACGGCTTTGTCCGTGCTACAAAGCAGCCTGTTAAACTATTGGAACTAATGCGCCGCAGCTGCGCGAGTGACTTCTGCTGCTTATGTACATAAGGGGGAGGGCTAAAGTCCTGTAACCATCAGATGCCTGCTGCTGGGTTGTTTGGCTAGTCTTTCCATTTGCTTATTCCTGAATCCAAAGGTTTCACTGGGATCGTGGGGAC`: “normalised bound fraction” 0.311 ratio.
Under “normalised bound fraction”, `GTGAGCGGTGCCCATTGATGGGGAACGCAAAACTCCTACTGTTGATGGCTGAATCCTATCAGGAAATTTTGATTTTACTGAGACAAAGTGCCTGCTACAAAGGACTCAGAAGTCTACTAAGTAAACAGGAAACTGGGACAGAATTCAGTCAAGAACTTAGACAGCTCATTGGCCTTTTAAGCCCAACGGTCTATCAGGAAGTAGAAAAGCAGAAACTACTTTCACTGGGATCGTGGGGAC` is recorded as 0.443 ratio.
Under “normalised bound fraction”, `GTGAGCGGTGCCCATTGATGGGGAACGACACCCTGCCTTCTTTTCTTTCCAAAAGACTTTCTTTTCCATGTAGACCGTAGATGTTTTCTGACTGAGTCAACTTTATATCCACAAGGTCTGTTGACATTTAACATGCCAAAGATCCATACAGTGGAGCAGCCAGATGTTTAGGGCCTGGTCCTGGCTTATTGCCATGAGCATTGCTCAGATTCCCAGTCTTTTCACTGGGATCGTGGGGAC` is recorded as 0.175 ratio.
Under “normalised bound fraction”, `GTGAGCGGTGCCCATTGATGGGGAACTCTTGTCCTCCCCAGCCACTCTGCAAGGGAGTGGAAGGCGTCTACTACACGTCAGCATCCCTCTTCCTCGGGGCGGGGGTGCACCTTGGAAGTGCAATCTTGTCTTATTTATATATGAATGAAGTAATAGATAAGAAGCAATGCCCTCCCAGGAATCACACTGTGACTTCTACCCTTGGGGAGCGGGCAGAGTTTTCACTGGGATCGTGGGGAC` is recorded as 0.0659 ratio.
Under “normalised bound fraction”, `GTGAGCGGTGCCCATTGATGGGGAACTCCAGAAGGTCATATAAGTGAAATCACACAGTAGCTAGCCTTTTGAATAAGGTTCCTTTCACTTAGCTTAGTGCATTTGAGATTCATCCACACAGATGACTCATCCATGGTTTGTTCCTTTTTATTGCTGAGTAGTAGTTGATTGTATGGTTGTGCCACCATGCCCATTCATTCACCAGCTGAAGAATACTCGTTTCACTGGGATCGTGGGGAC` is recorded as -0.0621 ratio.
`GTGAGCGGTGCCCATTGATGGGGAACGGGATGCAACGATGACTCCCTCCTCTAAATGTCTTGAACACTTATCAAATATTACATTTATTTCAAATGAAATTTTTATTGTCATTTGCTCATGTTTACATTGTGTCCCTCCTGCTAGGTTTTATAAATGAGCTGTTGTATAACTCTTCGGGTCCCCCAGTGTGTAATAACAGGTGCTTAATAAACATTTCATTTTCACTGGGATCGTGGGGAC` — result for “normalised bound fraction”: 0.441 ratio.
`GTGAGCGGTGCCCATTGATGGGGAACTTTCCAGCCCTTAGTTTCTGGCATTTAACCTGACTCTGGTCCCTGAATGGCATGGGAGTGCTTTCAACCACAGGTTTCCACATTCATGCCACTTGTTTGCTTTTTGATCTGACTCATTCCTACAGAGATCTTTATTTGCTTTGTGTTTCCAATGGAGAAAGAGCTTGGGAAGGGAGGATCCTAATTGTCTAAATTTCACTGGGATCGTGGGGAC` — result for “normalised bound fraction”: 0.473 ratio.

Block 3
Target: Interferon regulatory factor 5, full length, phosphomimetic (IRF5, Homo sapiens, UniProt Q13568-2, residues 1-514, K96S/S451D/S453D/S456D/S462D)
Method: protein-binding microarray
Molecule type: double-stranded DNA, one strand shown
Medium: in vitro
Tested at: 250 nM
Notes: 60-bp whole probe
Together with: salmon DNA 0.4 mg/ml
Reference: random background probes
Reading: higher = stronger binding
All sequences stand within: GCCTAGCAC … GTCTTGATTCGCTTGACGCTGCTG
For `TTTTTTTTTTTTTTTTTACTGTGCTAG`, the log fluorescence was 1.29 z-score.
For `GGCTTTTTTTTTTTTTTTTTGTGCTAG`, the log fluorescence was 0.508 z-score.
`GGGTTCAAGAAGTAGGAGAAGTGCTAG` has a log fluorescence of -0.0734 z-score.
`TCACCCTTGCTTTCCAAACTGTGCTAG` has a log fluorescence of 0.327 z-score.
`TCAGTTACGGAATTTCCCACTGTGCTA` gave a log fluorescence of 0.546 z-score.
With `TTTATTTTCAGTATTACCTCGTGCTAG` the log fluorescence was 4.72 z-score.
`TTAGCTTTCAGTCTCGATTAGTGCTAG` has a log fluorescence of 6.55 z-score.
The log fluorescence of `GACGGTATCCTTATCCGGACGTGCTAG` is reported as 0.0962 z-score.
`GACGGTCTCGTTTTCCTGACGTGCTAG` gave a log fluorescence of 0.255 z-score.
`TCAAGGCTGTGTTTTCACACTGTGCTA` gave a log fluorescence of -0.126 z-score.
The log fluorescence of `GACGAACTGCGGTATCGAGACGTGCTA` is reported as 0.245 z-score.
`AAAGTTATCACTTCCAAAGTGTGCTAG` has a log fluorescence of 1.51 z-score.
`TTAGGACTGCTTATCTTTTAGTGCTAG` gave a log fluorescence of 0.0618 z-score.
For `CCCGCTTTTTTTTTTTTTTTGTGCTAG`, the log fluorescence was 0.999 z-score.
`GACGGACTGCTTATCGTGACGTGCTAG` gave a log fluorescence of -0.313 z-score.
`GACGGCCTGGGTATCGGGACGTGCTAG` gave a log fluorescence of 0.0044 z-score.
`CTTGTTTCCAGTATATTTAAGTGCTAG` gave a log fluorescence of 1.36 z-score.
The log fluorescence of `GTAGATATCAGTATCGATTAGTGCTAG` is reported as 7.89 z-score.
`CTCACCATCATCCTCACTGCGTGCTAG` has a log fluorescence of 0.334 z-score.
The log fluorescence of `TTAGATATCGGTCTCGGTTAGTGCTAG` is reported as 5.31 z-score.
`GACGGTTTCGGTACCGGGACGTGCTAG` has a log fluorescence of 9.4 z-score.
`TTAGGTATCGACTTTCGGTTAGTGCTA` gave a log fluorescence of 10.2 z-score.
For `GACCATTTCAGTATCGAGACGTGCTAG`, the log fluorescence was 3.62 z-score.
For `CCTTATTTAAGACCTATGCACGTGCTA`, the log fluorescence was 0.399 z-score.
`GACGGTCTCGGTTCCGGGACGTGCTAG` has a log fluorescence of 0.497 z-score.

Block 4
Target: Sal-like protein 4, full length isoform B (SALL4, Homo sapiens, UniProt Q9UJQ4-2, residues 1-616)
Method: universal PBM
Molecule type: double-stranded DNA, one strand shown
Medium: in vitro
Tested at: not given
Notes: 8-mer, flanks averaged, mean of replicates
Reading: higher = stronger binding
With `AGTCTAAA` the E-score was 0.162.
`GCAACTCC` has an E-score of -0.183.
The E-score of `CGATCGGC` is reported as -0.0207.
The E-score of `GACAGATA` is reported as 0.0646.
`ACCACGAG` has an E-score of -0.143.
The E-score of `AACAAGTG` is reported as -0.0222.
For `AACAAATC`, the E-score was 0.215.
The E-score of `AAGTGCCC` is reported as -0.191.
`TCAGTCGA` gave an E-score of -0.0654.
`ATACCCAG` has an E-score of -0.0343.
The E-score of `AGTATTCA` is reported as 0.226.
With `ATGCCCAA` the E-score was -0.117.
With `GCAACGCA` the E-score was -0.232.
For `AAAGTCTC`, the E-score was -0.00825.
The E-score of `AGCAACGC` is reported as -0.146.
The E-score of `GTCAATGA` is reported as 0.0604.
`GACCTTCA` has an E-score of -0.0874.
With `AATTAAGT` the E-score was 0.333.
`GTAAGCAA` gave an E-score of 0.157.
With `GACCCTTA` the E-score was 0.0261.
`CCACAGGA` gave an E-score of -0.0293.
With `TACCATAA` the E-score was 0.323.
The E-score of `AGAAGGCG` is reported as -0.194.
`ACTCTGTG` has an E-score of -0.0782.
`AATTGTAT` gave an E-score of 0.269.

For quick reference, copied from above (block 4):
The E-score of `GTCAATGA` is reported as 0.0604.
`GTAAGCAA` gave an E-score of 0.157.
`ACCACGAG` has an E-score of -0.143.
The E-score of `AACAAGTG` is reported as -0.0222.
For `AACAAATC`, the E-score was 0.215.
The E-score of `AAGTGCCC` is reported as -0.191.
With `TACCATAA` the E-score was 0.323.
